Experimental data pooled from the literature.
Parts stem from different laboratories: compare values within a part only.

Series 1 — technique: RNA Bind-n-Seq; molecule type: RNA; matrix: in vitro; concentration: 365 nM; reference: no-protein control; direction: higher = stronger binding
Target: RNA binding protein fox-1 homolog 2, RRM domain, GST-SBP tag (RBFOX2, Homo sapiens, UniProt O43251-10, residues 100-194)
Setting: natural RNA segment, single round, ends assumed
All sequences stand within: GGGAGUUCUACAGUCCGACGAUC … UGGAAUUCUCGGGUGCCAA
Construct (chain): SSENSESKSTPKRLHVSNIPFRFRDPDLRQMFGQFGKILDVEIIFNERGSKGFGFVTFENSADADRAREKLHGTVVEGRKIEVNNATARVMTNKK
| Sequence | RBNS enrichment (R) |
| --- | --- |
| CUCCUUCCCUCAAGUCUUAGUUGGUUUGAGAGCCAGGGAUAUGGAUCCAGGGUGCUGUUGCAGGGUCACCUGCCUGUUACCACACCCCCAUCCAGCUGGGUGGUGGGUGA | 0.191 |
| CCCGACUACCCUAUUUAUUAUUGUAGCUAUUUAUUUAUUUAUUGAGGAUGUGCCCCGAGCGCACCCCCUUCCCACCCUGUACAUAGCUCCACCCAGCUCGGCCGUGGUGU | 0.594 |
| UGUCUGUAUAAAUCUGUCUUAUCUAGAACUUGUGCUGUCAGGGCACUCUUCCUCACGCUGUUGUUACUCAUGCACCAUUCAGACUUGUUAGAGUAGAUGUGGGUUUAGGA | 0.869 |
| AACCAAAUUCACCGUUAGGAAACAGUGAGCUCCGGCCCCACCUCGUGAACACAAAGCCUCGGAUCAGCCUUGAGAGAGGCCACACUACACACACCAGAUGGCAUCCUUGG | 0.408 |
| GUGAUUGCAAUCCGUGUAUUUUGACCAAAGUUCUCUAUUUUUCCUUGACUAAAACAAGAUAAUGAGACAUAAUUUUCUUUAUAAUGUGUACAACACCUAAUAUACACUAA | 0.443 |
| CUAGGUAACUGCAUAUAUAUAAGGAAUGUAUUUUGUUAAGAAGGCUUUUGUGAAAUUCAGAAUUUUUCUUUUUAAUAUAUUUCUUCCAUGGAAGAGUUGUCAUCACUAAA | 0.598 |
| CCCUCAGUGGAGAAGAUGAGAAGAACAUCUUGGGGUGCUUUUCUGUUAUAGGGUCCCCUCCCUGACGCCUAAAAUAUUUGUAACUACACCUAAAAGGGUUUUGCUUCGGG | 0.416 |
| UCUAGCUUUUAAAGAACUACAUGUGUCUUUAAAAGUAUUUAUUGUGCAAAUGUACUAUAGCAGUUCAUCUUCAUGUUCCAGCCUUACUCUGUGUUAAUACUGCUUCACAA | 0.526 |
| GAAGGUCUUCCUGUUUUCACCAUCUUUCUAAUCUUUUUCCAGCUUGAGGGAGGCGGUAUCCACCUGCAGCCCUUUUAGUGGUGGUGUCUCACUCUUUCUUCUCUCUUUGU | 0.441 |
| GCAGAUCCUACAGUCAAUAGAUAAUGAUGAGACUUACAACAUUUCACAUCUCUCUUGAGAAUCCUUUAAGUGCUGUUUAGCCUCCCAACACAUAGAUGCAUAGGAUGGAG | 0.442 |
| UGCUUGUAAUAGGUAGGCAAUUCCUUGAUUACAGGAAGCUUUUAUAUUACUUGAGUAUUUCUGUCUUUUCACAGAAAAACAUUGGGUUUCUCUCUGGGUUUGGACAUGAA | 0.405 |
| ACACCAUGCAGAACCAGAGCAGCCAGCUCUACGCAGCACUGCCUGAGAGGCUCUACAUAAUCCAGGAGGGCAGGAUCCUCUACAAGGGUAAAUCUGGCCCUUGGAACUAC | 0.227 |

Series 2 — technique: DNA-protein interaction ELISA; molecule type: double-stranded DNA, one strand shown; matrix: in vitro, bacterial lysate; concentration: not given; setting: whole dsDNA probe, crude lysate protein; reference: highest signal in screen; direction: higher = stronger binding
Target: Probable WRKY transcription factor 33, N-terminal DNA-binding domain (WRKY33, Arabidopsis thaliana, UniProt Q8S8P5, residues 169-264)
Target sequence (chain): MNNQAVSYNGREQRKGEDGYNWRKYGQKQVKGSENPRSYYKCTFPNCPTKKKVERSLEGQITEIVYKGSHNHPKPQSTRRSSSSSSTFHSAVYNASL
| Sequence | relative absorbance |
| --- | --- |
| AAAAAAAAGTGCCAACGTTCAAGAAAAA | 24.3 % of maximum |
| AAAAAACTACTACCTTTGCCTAAGCGAAAA | 20.2 % of maximum |
| AAAAAAAGTGGCCGCTAGTCAACTCAAAAA | 36.4 % of maximum |
| AAAAAAGCCATCATGGTTAGTGTACAAAAA | 23.8 % of maximum |
| AAAAAAAGGGTCCGGTGCATACATGTAAAA | 20.3 % of maximum |
| AAAAAAGCTTTCAACATCTGCGTCCAAAAA | 32.2 % of maximum |
| AAAAAATGATGTTGGCGCATTTAAACAAAA | 21.7 % of maximum |
| AAAAAATGTTGTTGCTGTTGGTCCTAAAAA | 20.2 % of maximum |
| AAAAAAATTACGCGGGATCGCCAAAA | 18.3 % of maximum |
| AAAAAAGTACGGATGCCCGCGCGTATAAAA | 11 % of maximum |
| AAAAAAATCCATATTATTGCTACCCGAAAA | 22.4 % of maximum |
| AAAAAATATGGCACTCGCCGCACATCAAAA | 22 % of maximum |
| AAAAAAGCTGTCACTGTAGTCGGTCCAAAA | 26.9 % of maximum |
| AAAAAACTCTTAAGGAAAGTTCCGACAAAA | 25.7 % of maximum |
| AAAAAATTTTGTTTTTGCTTTTCCTTAAAA | 27.8 % of maximum |
| AAAAAAGGGTCGCTGTGAGCTCATGAAAAA | 19.9 % of maximum |
| AAAAAATAGTGTGATTGGTATCCAGTAAAA | 12.4 % of maximum |
| AAAAAAACACCTGTATAGCATGGACGAAAA | 21.8 % of maximum |

Series 3 — technique: protein-binding microarray; molecule type: double-stranded DNA, one strand shown; matrix: in vitro; concentration: 250 nM; setting: 60-bp whole probe; together with: salmon DNA 0.4 mg/ml; reference: random background probes; direction: higher = stronger binding; all sequences stand within: GCCTAGCAC … GTCTTGATTCGCTTGACGCTGCTG
Target: Interferon regulatory factor 7, full length, phosphomimetic (IRF7, Homo sapiens, UniProt Q92985, residues 1-503, S101K/S471D/S472D/S475D/S476D/S477D/S483D/S484D/S487D)
Target sequence (chain): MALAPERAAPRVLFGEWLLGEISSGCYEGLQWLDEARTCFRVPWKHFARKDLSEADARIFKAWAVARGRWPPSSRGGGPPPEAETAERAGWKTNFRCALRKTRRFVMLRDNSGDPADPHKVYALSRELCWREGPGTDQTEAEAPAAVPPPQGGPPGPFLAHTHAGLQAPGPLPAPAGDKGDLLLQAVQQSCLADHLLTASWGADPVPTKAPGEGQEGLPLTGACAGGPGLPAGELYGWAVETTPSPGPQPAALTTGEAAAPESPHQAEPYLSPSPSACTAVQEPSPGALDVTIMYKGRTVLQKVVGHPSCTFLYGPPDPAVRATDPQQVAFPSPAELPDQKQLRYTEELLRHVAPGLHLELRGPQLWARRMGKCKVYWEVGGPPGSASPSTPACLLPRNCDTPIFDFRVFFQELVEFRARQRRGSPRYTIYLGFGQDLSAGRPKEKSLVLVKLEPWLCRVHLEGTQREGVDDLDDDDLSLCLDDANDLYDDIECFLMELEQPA
| Sequence | log fluorescence [z-score] |
| --- | --- |
| GACGCTATCGGTTTCGGGACGTGCTAG | 3.23 |
| GACGATTGCAGACTGGAGACGTGCTAG | -0.562 |
| TTAGGACTGGGAGTGGGTTAGTGCTAG | -0.371 |
| TTAGAACTGGGGTTTCGATTCGTGCTA | 10.4 |
| TCATTTCTGAATGTCCTACTGTGCTAG | 1.5 |
| TTAGGTTTCGGTTCCGGGTAGTGCTAG | 12.4 |
| TTAGGTTTCGGGTCTGGGTTAGTGCTA | 7.77 |
| TCAGCTCTGGCACCTCTAACTGTGCTA | -0.713 |
| TTAGAACTGGGACTGGGTTAGTGCTAG | -0.146 |
| TGCTCCTTCTGACATCAACCCGTGCTA | 0.292 |
| TTAGGACTGGGGTAACGGTTAGTGCTA | -0.382 |
| TTAGATTTCAGGCTCGATTAGTGCTAG | 1.45 |
| GACGGTTTCGGACAGGGGACGTGCTAG | 1.96 |
| GACGGTTTCCTTTCCCTGCCGTGCTAG | 4.41 |
| GACGATTCCAGTTCCGAGACGTGCTAG | 0.829 |
| GACGGACTGCTACTGCAGACGTGCTAG | -1.04 |
| ATATATATGAATATATATTAGTGCTAG | 0.186 |
| GACGCTTTCGGGACTGGAGACGTGCTA | 0.546 |
| GACGGTTTCCTATTGCTGACGTGCTAG | 4.31 |
| GAAAGCCTGCTGCCAGTCTGGTGCTAG | -0.805 |
| TTAGGTATCGGGTATCGGTTCGTGCTA | 2.76 |
| TTAGGACTGTACTTTCGGTTAGTGCTA | 1.67 |

Series 4 — technique: protein binding microarray; molecule type: double-stranded DNA, one strand shown; matrix: in vitro; concentration: not given; reference: not given; direction: higher = stronger binding
Target: Histone acetyltransferase KAT6A, winged helix 1, GST fusion (KAT6A, Homo sapiens, UniProt Q92794, residues 1-85)
Setting: 8-mer, flanks averaged, mean of 2 arrays, mostly near background
Residues (chain): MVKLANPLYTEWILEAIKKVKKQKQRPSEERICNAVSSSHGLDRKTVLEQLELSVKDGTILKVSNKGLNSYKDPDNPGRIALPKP
| Sequence | E-score |
| --- | --- |
| CGTTTCCC | 0.0927 |
| ACTCATCC | -0.145 |
| ATGAGCAA | -0.223 |
| CCGAGATC | 0.0242 |
| TACTAGAA | 0.00874 |
| GTTGCAGA | -0.0956 |
| ATATGGTC | -0.178 |
| ACCGTCTC | 0.0867 |
| ATCGTAAA | -0.203 |
| TAATGCCA | -0.129 |
| CCACTCAG | -0.183 |
| ATATGAAG | 0.000615 |
| ACGAAACC | 0.0419 |
| CTCCTCAG | -0.132 |
| GGAATACA | -0.124 |
| ATTTCACA | -0.205 |

Series 5 — technique: competition protein-binding microarray; molecule type: double-stranded DNA, one strand shown; matrix: in vitro; concentration: 2 µM; together with: Cbf1 competitor, 0.05 µM; direction: higher = stronger binding; all sequences stand within: … GTCTTGATTCGCTTGACGCTGCTG
Target: Phosphate system positive regulatory protein PHO4, full length, GST-tagged (PHO4, Saccharomyces cerevisiae, UniProt P07270, residues 1-312)
Setting: whole 60-bp probe, lowest competitor level
Residues (chain): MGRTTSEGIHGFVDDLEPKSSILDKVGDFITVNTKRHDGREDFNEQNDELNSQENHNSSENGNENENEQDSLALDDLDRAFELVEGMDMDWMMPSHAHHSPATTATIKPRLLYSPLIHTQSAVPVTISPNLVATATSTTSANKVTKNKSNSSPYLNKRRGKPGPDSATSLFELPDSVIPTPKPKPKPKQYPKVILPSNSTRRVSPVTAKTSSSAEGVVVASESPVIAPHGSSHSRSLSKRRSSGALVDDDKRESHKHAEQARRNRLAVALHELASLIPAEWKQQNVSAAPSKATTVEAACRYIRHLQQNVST
| Sequence | fluorescence intensity [a.u.] |
| --- | --- |
| GTCTTGTCTCATTGGAGTGTGGGTGTCCCCACTTCA | 5890 |
| CGTCCTAGTGATTGTGTAGTGGGTGCCATGAGGAAG | 7470 |
| CATACCCAACCTTGCGTCGTGGGTGAAGATATTTGT | 8970 |
| GTCTGAGTAAGTCCGCACGTCCAACGTCTTGAGTCG | 6480 |
| GGCTATTATGCGATCATCGTGCAAAAATCGGTACTC | 9150 |
| GTCGTTAATAGAAGCCATGTGGAAAGATAAAGGGGC | 8040 |
| CGATGATGACTACATCATGTGACAGGTTAATGGTCA | 7000 |
| CATACCCAACCTTTTCACGTGAACTAAGATATTTGT | 11900 |
| CGTCCTAGCGATTGAGGGGTGGGTGCCATGAGGAAG | 6650 |
| TGCGCAACAACTTGACGTGTGGGTGTATGTCTAGAA | 5840 |
| TTGTTGCCACAAATGAACGTGGAAGGAGTTTCTGGG | 9400 |
| TGTGGGGACGTCGTTCACGTGCAAAAGTCGCCAAAT | 14500 |
| CTAGACAAAGCAATTCTCATGACAAATCTACCGATT | 2750 |
| GTCTTGTCTCATTGGCGGGTGGGTGTCCCCACTTCA | 5180 |
| CACTGAGTGAGCCGCCTCGTGCGATGCGTTAGAAAA | 13000 |
| GGTTAAACAGAAAAAGACGTGACGGTGTAACCGAGA | 4250 |
| GGTGTCCTCAAAGAATCTCAAGGTCCTAGCAGCTAA | 3170 |
| TGCTGTAGAGTTCACCACGTGAGGTAAATATTGGGA | 14900 |
| TGCGCAACAACTTTTCACGTGAAATTATGTCTAGAA | 8130 |
| AGAGTCATCGGCTTCACCGTGAGGTTTTTTCAAGTG | 3920 |
| GTTCTGGGTATTTCGCATGTGGATGGGTTCAGTGTC | 9240 |
| TAGAGAATGGCAATGCTCGTGCTAAAGGTGAAAAAA | 9990 |
| CATACCCAACCTTGTTTAGTGGGTGAAGATATTTGT | 3530 |
| CATACCCAACCTTTTCACGTGGGTTAAGATATTTGT | 14500 |
| ACTTGTGGCTACATACTCGGTCAAGCCGCTTTGCTG | 3140 |
